Measurements gathered from unrelated publications.
Parts stem from different laboratories: compare values within a part only.
Sequence of UniProt P35916 (whole entry, unmodified, looked up): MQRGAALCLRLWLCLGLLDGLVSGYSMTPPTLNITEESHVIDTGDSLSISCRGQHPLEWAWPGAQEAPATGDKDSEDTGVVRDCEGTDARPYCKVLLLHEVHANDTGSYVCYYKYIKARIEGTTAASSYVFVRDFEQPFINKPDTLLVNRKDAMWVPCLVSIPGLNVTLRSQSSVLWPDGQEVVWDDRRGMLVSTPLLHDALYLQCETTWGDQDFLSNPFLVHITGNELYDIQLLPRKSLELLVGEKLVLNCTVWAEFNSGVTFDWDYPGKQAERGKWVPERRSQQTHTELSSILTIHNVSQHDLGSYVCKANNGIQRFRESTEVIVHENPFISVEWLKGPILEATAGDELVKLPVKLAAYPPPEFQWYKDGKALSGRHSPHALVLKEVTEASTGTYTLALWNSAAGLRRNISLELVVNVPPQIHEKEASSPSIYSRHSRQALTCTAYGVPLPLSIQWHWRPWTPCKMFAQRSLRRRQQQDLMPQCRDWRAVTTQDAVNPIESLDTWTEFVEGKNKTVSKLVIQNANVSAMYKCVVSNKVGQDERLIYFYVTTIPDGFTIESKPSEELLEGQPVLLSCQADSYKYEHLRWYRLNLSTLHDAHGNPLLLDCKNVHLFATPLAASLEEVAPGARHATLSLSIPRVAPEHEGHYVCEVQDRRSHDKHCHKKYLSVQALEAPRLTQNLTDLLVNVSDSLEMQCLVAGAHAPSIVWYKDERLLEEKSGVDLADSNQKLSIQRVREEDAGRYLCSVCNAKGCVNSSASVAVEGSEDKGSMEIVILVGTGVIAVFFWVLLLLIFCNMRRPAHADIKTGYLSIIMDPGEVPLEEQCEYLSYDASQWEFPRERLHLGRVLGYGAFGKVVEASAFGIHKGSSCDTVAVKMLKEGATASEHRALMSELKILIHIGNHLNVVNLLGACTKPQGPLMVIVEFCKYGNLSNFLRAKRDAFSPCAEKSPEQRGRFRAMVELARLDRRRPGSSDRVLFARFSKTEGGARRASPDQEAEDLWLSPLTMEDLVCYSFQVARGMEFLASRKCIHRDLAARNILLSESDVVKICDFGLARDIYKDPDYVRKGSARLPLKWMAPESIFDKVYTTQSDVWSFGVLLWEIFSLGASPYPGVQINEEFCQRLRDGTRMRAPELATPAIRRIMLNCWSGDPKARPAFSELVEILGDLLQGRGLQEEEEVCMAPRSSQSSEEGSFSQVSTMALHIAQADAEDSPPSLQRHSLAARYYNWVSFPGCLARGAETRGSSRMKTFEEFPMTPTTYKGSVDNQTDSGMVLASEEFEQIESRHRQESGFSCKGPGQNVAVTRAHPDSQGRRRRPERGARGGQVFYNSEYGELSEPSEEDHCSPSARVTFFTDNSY
Sequence of UniProt P15056 (whole entry, unmodified, looked up): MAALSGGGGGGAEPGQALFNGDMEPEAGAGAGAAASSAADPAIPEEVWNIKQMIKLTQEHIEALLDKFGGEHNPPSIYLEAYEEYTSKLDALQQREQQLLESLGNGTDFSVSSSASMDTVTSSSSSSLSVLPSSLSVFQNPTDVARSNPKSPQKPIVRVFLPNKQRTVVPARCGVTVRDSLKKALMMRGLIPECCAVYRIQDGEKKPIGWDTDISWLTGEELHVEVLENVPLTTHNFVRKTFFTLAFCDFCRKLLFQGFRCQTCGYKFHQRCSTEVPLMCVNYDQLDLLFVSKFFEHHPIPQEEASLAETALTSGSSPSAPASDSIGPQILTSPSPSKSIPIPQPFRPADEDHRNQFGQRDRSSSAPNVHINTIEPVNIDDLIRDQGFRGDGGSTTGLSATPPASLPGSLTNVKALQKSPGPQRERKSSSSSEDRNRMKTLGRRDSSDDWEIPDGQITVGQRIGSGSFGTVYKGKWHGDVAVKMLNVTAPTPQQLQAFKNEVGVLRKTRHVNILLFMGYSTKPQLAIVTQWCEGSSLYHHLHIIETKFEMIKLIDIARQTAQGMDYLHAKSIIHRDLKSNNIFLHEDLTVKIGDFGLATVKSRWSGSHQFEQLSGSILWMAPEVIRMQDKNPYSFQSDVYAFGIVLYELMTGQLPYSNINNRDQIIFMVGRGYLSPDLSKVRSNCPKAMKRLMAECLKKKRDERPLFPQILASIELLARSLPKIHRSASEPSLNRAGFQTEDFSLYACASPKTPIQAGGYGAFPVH
Sequence of UniProt Q7L7X3 (whole entry, looked up): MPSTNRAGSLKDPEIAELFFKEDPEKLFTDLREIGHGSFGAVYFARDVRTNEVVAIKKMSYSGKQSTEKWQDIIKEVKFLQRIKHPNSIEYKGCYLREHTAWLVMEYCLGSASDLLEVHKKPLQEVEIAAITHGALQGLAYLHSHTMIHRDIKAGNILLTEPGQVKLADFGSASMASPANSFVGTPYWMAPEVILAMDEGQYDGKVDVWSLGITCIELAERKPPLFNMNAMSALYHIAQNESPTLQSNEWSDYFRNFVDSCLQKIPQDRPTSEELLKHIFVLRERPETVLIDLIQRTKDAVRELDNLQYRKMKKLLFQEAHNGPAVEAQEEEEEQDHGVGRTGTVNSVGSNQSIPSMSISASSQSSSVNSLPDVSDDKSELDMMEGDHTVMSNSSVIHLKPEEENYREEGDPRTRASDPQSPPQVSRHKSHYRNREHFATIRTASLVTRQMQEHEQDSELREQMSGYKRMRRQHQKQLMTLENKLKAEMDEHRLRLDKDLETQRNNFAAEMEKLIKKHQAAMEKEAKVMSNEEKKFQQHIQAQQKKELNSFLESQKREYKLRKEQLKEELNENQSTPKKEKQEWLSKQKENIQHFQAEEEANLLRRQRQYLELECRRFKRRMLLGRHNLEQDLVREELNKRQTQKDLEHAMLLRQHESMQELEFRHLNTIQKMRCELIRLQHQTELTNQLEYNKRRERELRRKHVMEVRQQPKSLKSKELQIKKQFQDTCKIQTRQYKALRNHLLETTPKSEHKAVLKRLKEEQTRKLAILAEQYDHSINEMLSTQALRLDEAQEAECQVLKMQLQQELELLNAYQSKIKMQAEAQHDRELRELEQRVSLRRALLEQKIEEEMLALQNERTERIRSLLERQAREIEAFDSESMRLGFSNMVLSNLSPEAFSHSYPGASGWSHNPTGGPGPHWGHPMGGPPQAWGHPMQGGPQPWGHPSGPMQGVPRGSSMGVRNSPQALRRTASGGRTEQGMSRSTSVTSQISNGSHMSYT
Sequence of UniProt Q6P5Z2 (whole entry, looked up): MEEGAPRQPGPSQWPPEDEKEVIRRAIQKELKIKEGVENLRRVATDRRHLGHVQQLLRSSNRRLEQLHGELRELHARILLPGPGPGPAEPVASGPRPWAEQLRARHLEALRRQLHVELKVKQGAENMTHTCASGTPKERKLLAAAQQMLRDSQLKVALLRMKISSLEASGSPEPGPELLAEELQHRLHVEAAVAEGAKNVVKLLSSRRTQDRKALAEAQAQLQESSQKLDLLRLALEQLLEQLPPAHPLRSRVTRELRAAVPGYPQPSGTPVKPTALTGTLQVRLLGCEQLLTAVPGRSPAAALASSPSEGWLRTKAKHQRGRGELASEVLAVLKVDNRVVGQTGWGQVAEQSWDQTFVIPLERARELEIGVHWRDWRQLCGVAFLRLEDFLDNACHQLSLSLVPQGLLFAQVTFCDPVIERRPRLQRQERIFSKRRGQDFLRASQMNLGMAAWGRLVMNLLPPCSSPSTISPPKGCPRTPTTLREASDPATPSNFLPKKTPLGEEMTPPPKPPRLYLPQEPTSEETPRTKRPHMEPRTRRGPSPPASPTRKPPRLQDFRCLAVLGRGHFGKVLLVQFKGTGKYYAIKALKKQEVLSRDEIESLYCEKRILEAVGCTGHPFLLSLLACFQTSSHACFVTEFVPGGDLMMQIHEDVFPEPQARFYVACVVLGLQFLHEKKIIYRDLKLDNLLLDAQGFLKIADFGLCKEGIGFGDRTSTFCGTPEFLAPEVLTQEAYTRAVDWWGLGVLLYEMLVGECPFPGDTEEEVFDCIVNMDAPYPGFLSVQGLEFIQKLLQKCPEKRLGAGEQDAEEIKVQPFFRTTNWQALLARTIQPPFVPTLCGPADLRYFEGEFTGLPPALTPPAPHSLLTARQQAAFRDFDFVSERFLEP
Sequence of UniProt P06493 (whole entry, looked up): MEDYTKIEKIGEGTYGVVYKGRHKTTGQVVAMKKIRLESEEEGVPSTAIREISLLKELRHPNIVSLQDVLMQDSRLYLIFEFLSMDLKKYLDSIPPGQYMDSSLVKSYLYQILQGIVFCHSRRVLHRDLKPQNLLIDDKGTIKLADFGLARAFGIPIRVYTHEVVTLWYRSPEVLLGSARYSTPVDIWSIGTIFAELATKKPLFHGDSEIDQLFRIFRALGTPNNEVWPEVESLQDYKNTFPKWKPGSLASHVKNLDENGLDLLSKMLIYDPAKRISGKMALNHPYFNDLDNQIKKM
Sequence of UniProt P19784 (whole entry, looked up): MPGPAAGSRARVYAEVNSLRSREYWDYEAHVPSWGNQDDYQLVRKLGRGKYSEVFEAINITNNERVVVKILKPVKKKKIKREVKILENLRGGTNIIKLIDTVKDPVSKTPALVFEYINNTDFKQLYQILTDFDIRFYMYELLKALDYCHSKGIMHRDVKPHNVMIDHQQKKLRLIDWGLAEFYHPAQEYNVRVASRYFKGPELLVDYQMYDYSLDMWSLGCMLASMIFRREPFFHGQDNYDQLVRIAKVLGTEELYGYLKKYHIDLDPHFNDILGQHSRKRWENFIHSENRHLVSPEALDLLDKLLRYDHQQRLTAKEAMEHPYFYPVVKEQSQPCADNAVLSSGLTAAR

Sample 1
SMILES: CC1=C(C#N)C(c2ccc3c(c2)c(NC(=O)c2ccccc2C)nn3C)C(C#N)=C(C)N1
Observed: cell-free assay
Method: competition with immobilised ligand
Concentration: 1 µM
The remaining binding was 100% (PRKG1 (Homo sapiens, UniProt Q13976)).
For Tyrosine-protein kinase ABL1, non-phosphorylated (ABL1, Homo sapiens, UniProt P00519): remaining binding read 86%.
For TAOK1 (Homo sapiens, UniProt Q7L7X3): remaining binding read 100%.
YES1 (Homo sapiens, UniProt P07947) — remaining binding: 88%.
CIT (Homo sapiens, UniProt O14578) — remaining binding: 55%.
The remaining binding was 99% (EPHB1 (Homo sapiens, UniProt P54762)).
It gave 100% for remaining binding (ERBB3 (Homo sapiens, UniProt P21860)).
EGFR (Homo sapiens, UniProt P00533, del752-759) — remaining binding: 88%.

Sample 2
SMILES: O=C(Nc1cnn(-c2csc(C(=O)NC3COC3)c2)c1)Nc1ccccc1Cl
Observed: enzyme activity
Concentration: 5 µM
Relative to: untreated control
The remaining activity was 95.4% (STK33 (Homo sapiens, UniProt Q9BYT3)).
It gave 106% for remaining activity (PRKD1 (Homo sapiens, UniProt Q15139)).
Cyclin-dependent kinase 1, with cyclin A (CDK1, Homo sapiens, UniProt P06493) — remaining activity: 94.6%.
The remaining activity was 121% (TAOK1 (Homo sapiens, UniProt Q7L7X3)).
For CSNK2A2 (Homo sapiens, UniProt P19784): remaining activity read 94.9%.
For PLK4 (Homo sapiens, UniProt O00444): remaining activity read 88%.
It gave 92.5% for remaining activity (PKN3 (Homo sapiens, UniProt Q6P5Z2)).

Sample 3
SMILES: COc1cc(/C=C(\C#N)C(=O)c2ccc(O)c(O)c2)cc(I)c1O
Action: inhibitor
Concentration: 5 µM
STK38L (Homo sapiens, UniProt Q9Y2H1); kinase-CDC37 interaction; human cells; relative to: vehicle — “log2 fold change”: 0.019.
For FLT4 (Homo sapiens, UniProt P35916, H1035R); cell-based translocation; human cells; hereditary lymphedema type 1A variant; relative to: vehicle: “log2 fold change” read 0.568.
It gave 1.03 for “log2 fold change” (FLT4 (Homo sapiens, UniProt P35916, L1044P); cell-based translocation; human cells; hereditary lymphedema type 1A variant; relative to: vehicle).
kinase–CDC37 interaction; kinase–CDC37 binding; human cells; oncogenic FCHSD1-BRAF fusion; relative to: vehicle — “log2 fold change”: -0.015.
The “log2 fold change” was -0.27 (BRAF (Homo sapiens, UniProt P15056); kinase-CDC37 interaction; human cells; relative to: vehicle).
KSR2 (Homo sapiens, UniProt Q6VAB6); cell-based kinome screen; human cells; relative to: untreated control — “log2 fold change”: 0.607 log2.
The “log2 fold change” was 0.17 log2 (NPR2 (Homo sapiens, UniProt P20594); cell-based kinome screen; human cells; relative to: untreated control).
For AKT1 (Homo sapiens, UniProt P31749); cell-based kinome profiling; human cells; relative to: vehicle control: “log2 fold change” read 0.479.
BRAF (Homo sapiens, UniProt P15056, G469E); cell-based kinome profiling; human cells; relative to: vehicle control — “log2 fold change”: 0.069.
It gave 0.73 for “log2 fold change” (Tyrosine-protein kinase Fgr, with CDC37 (FGR, Homo sapiens, UniProt P09769); cell-based kinome screen; human cells; relative to: vehicle).
The “log2 fold change” was 0.269 (CAMK2G (Homo sapiens, UniProt Q13555); cell-based kinome profiling; human cells; relative to: vehicle control).
The “log2 fold change” was -0.1 (FGFR1 (Homo sapiens, UniProt P11362); cell-based translocation; human cells; relative to: vehicle).
For kinase–CDC37 interaction; kinase–CDC37 binding; human cells; oncogenic TFG-NTRK1 fusion; relative to: vehicle: “log2 fold change” read 0.245.

Sample 4
Target: Cyclin-dependent kinase 6, with cyclin D3 (CDK6, Homo sapiens, UniProt Q00534)
Sequence of UniProt Q00534 (whole entry, looked up): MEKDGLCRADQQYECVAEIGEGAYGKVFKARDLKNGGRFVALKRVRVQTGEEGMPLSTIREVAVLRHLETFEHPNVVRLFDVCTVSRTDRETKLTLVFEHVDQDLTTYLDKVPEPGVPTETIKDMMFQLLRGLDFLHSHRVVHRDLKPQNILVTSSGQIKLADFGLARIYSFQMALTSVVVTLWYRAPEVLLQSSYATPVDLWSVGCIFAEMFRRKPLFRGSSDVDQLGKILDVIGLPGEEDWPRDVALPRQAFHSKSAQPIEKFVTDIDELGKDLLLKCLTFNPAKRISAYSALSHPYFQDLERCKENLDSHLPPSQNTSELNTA
Observed: enzyme activity
Action: inhibitor
Concentration: 0.5 µM
Relative to: control
The remaining activity of `O=C1NC(=O)C(c2cn(CCCn3ccnc3)c3ccccc23)=C1Nc1ccccc1` is reported as 104%.
`OCC(O)CCON=C1C(c2c(O)[nH]c3ccccc23)=Nc2ccccc21` (stereo not drawn) gave a remaining activity of 10.2%.
The remaining activity of `O=C(O)c1ccc2c3c1cccc3c(=O)n1c3ccccc3nc21` is reported as 105%.
With `O=S(=O)(c1cccc2cnccc12)N1CCCNCC1` the remaining activity was 95.8%.
`Nc1ncnc2n[nH]c(Nc3ccc(F)cc3)c12` gave a remaining activity of 99.6%.
For `Cc1ccc(NC(=O)c2ccc(CN3CCN(C)CC3)cc2)cc1Nc1nc(-c2cccnc2)cs1`, the remaining activity was 90.5%.
`C#Cc1cccc(Nc2ncnc3cc(OCCOC)c(OCCOC)cc23)c1` has a remaining activity of 117%.
`Oc1ccc(-c2nc(-c3ccncc3)c(-c3ccc(F)cc3)[nH]2)cc1` gave a remaining activity of 104%.
`CNC(=O)c1cc(Oc2ccc(NC(=O)Nc3ccc(Cl)c(C(F)(F)F)c3)cc2)ccn1` gave a remaining activity of 104%.
`Cc1nc(-c2ccccc2)c(-c2ccncc2)o1` gave a remaining activity of 109%.
The remaining activity of `O=c1c2ccccc2[nH]c(=S)n1CCN1CCC(=C(c2ccc(F)cc2)c2ccc(F)cc2)CC1` is reported as 98.2%.
The remaining activity of `O=C(CCCc1ccc(-c2ccccc2F)cc1)Nc1ccc(O)cc1` is reported as 103%.
The remaining activity of `NCCNc1ncc(C(N)=O)c(Nc2cccc(C(F)(F)F)c2)n1` is reported as 100%.
The remaining activity of `O=C(Nc1cccc(Nc2cc(Nc3cccc(C(F)(F)F)c3)ncn2)c1)C1CC1` is reported as 102%.
